Measurements collected from several papers.
Protocols differ between the studies behind these lines.
CA9: Carbonic anhydrase 9 (CA9, Homo sapiens, UniProt Q16790)
Sequence of UniProt Q13882 (whole entry, looked up): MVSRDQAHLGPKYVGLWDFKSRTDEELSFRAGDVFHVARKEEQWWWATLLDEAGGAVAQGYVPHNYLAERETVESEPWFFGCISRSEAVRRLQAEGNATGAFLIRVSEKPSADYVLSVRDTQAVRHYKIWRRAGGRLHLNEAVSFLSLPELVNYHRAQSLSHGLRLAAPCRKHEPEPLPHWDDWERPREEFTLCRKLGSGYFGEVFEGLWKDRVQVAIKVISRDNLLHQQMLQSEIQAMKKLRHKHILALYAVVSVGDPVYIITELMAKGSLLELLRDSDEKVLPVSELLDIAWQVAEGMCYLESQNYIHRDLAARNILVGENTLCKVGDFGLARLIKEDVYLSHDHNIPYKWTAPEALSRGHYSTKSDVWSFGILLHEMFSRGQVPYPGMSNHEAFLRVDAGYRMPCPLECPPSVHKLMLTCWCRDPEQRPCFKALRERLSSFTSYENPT
Sequence of UniProt P51812 (whole entry, looked up): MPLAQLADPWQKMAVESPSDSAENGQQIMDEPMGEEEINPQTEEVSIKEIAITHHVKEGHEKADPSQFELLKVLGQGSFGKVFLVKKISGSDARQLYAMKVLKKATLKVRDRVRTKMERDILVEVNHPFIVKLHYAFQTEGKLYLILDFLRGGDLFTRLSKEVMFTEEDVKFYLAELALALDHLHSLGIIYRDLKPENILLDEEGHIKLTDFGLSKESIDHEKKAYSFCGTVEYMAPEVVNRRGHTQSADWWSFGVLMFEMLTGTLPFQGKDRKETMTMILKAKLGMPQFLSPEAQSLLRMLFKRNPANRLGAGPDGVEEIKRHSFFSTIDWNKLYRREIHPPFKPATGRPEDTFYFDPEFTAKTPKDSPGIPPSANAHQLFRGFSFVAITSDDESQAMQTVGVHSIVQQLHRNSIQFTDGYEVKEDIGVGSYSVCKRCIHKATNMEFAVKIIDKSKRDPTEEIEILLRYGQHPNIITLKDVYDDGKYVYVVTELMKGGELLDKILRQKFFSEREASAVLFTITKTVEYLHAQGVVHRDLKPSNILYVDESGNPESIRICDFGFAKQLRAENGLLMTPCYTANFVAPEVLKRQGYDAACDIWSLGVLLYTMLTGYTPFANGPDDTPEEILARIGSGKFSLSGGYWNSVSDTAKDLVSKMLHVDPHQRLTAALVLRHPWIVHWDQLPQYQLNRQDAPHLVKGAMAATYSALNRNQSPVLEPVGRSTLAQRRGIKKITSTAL

Compound | tested on | assay | setting | quantity | value
CN(Cc1cn(-c2ccccc2)nc1-c1cccs1)C(=O)c1cc(S(N)(=O)=O)ccc1O | CA9 | enzyme activity, inhibitor |  | IC50 | 100 nM
COC(=O)c1ccc(O)cc1 | Helicobacter pylori | microbial growth, broth dilution | 1.95 µg/mL | inhibition | 100%
CNc1ncc2c(/C=C/C(=O)N3CCC(OC)CC3)nn(Cc3cccc(C(F)(F)F)c3)c2n1 | PTK6 (Homo sapiens, UniProt Q13882) | enzyme activity, inhibitor, radiometric | 1 µM | remaining activity | 96%
CCCCC(=O)Nc1ccc(-c2ccc3ncn(CCC)c(=O)c3c2)cn1 | FLT3 (Homo sapiens, UniProt P36888, D835V) | binding, competition with immobilised ligand | 0.5 µM | remaining binding | 100%
CC(=NNC(=O)c1ccccc1O)c1ccc(Nc2nnc(-c3ccc(Cl)cc3)c3ccccc23)cc1 | HepG2 | cell growth or viability, MTT | 0.625 µM | cell death | 0.143%
[2H]c1c([2H])c([C@]2([2H])CCCN2C(=O)C(C)(C)Oc2ccc3cn[nH]c3c2)c([2H])c([2H])c1C([2H])([2H])[2H] | Ribosomal protein S6 kinase alpha-3, C-terminal kinase domain (RPS6KA3, Homo sapiens, UniProt P51812) | binding, competition with immobilised ligand | 1 µM | remaining binding | 100%
CCn1c(SCc2cc(Cl)cc(S(N)(=O)=O)c2)nc2cc(S(N)(=O)=O)ccc21 | CA9 | enzyme activity, inhibitor |  | IC50 | 44 nM
O=C(Nc1ccc(Oc2nnc(-c3ccc(Cl)cc3)c3ccccc23)cc1)c1cccc([N+](=O)[O-])c1 | HepG2 | cell growth or viability, MTT | 1.25 µM, 24 h | viability | 51.8%

For quick reference, copied from above:
Compound | tested on | assay | setting | quantity | value
[2H]c1c([2H])c([C@]2([2H])CCCN2C(=O)C(C)(C)Oc2ccc3cn[nH]c3c2)c([2H])c([2H])c1C([2H])([2H])[2H] | Ribosomal protein S6 kinase alpha-3, C-terminal kinase domain (RPS6KA3, Homo sapiens, UniProt P51812) | binding, competition with immobilised ligand | 1 µM | remaining binding | 100%
